Assay results gathered from unrelated publications.
A part holds a random share of what one study measured. Changes are numbered by the printed parent chain.

Set 1 — method: DHFR PCA, deep sequencing; medium: yeast; together with: (+)-ABA 0.11 µM; baseline: wild-type fitted maximum; reading: higher = stronger binding
Target: ABI1, truncated, D143A, DHFR fusion (Arabidopsis thaliana)
Notes: methotrexate growth selection, single substitutions
Starting sequence: PYL1, truncated, DHFR fusion (Arabidopsis thaliana); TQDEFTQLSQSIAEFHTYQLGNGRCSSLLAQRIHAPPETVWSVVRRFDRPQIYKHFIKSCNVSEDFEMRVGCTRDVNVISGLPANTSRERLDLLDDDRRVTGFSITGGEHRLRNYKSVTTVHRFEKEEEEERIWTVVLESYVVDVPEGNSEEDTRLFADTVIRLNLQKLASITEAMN
`K54L` — result for “relative binding score”: -3.6%.
`N61C`: “relative binding score” 33.4%.
For `R49P`, “relative binding score” read -4.04%.
`V78W` — result for “relative binding score”: 77.4%.
`Q167M`: “relative binding score” 20.3%.
For `G71Q`, “relative binding score” read 1.1%.
`T106S`: “relative binding score” 1.11%.
`M68L` — result for “relative binding score”: 61.8%.
Under “relative binding score”, `S59P` is recorded as -2.29%.
For `S80L`, “relative binding score” read 44.8%.
`L29R`: “relative binding score” -2.28%.
For `F15Y`, “relative binding score” read 32%.
`T106Y`: “relative binding score” 8.48%.
For `R123W`, “relative binding score” read -1.87%.
`W134C`: “relative binding score” 47.4%.
For `D92H`, “relative binding score” read -0.765%.
`H122N` — result for “relative binding score”: 10.1%.
`G108P`: “relative binding score” -5.2%.
Under “relative binding score”, `E67G` is recorded as 5.8%.
`R111E`: “relative binding score” 1.07%.
`E131A` — result for “relative binding score”: 37.4%.

Set 2 — method: protein binding microarray; molecule type: double-stranded DNA, one strand shown; medium: in vitro; concentration: not given; baseline: not given; reading: higher = stronger binding
Target: Histone acetyltransferase KAT6A, winged helix 2, GST fusion (KAT6A, Homo sapiens, UniProt Q92794, residues 85-181)
Notes: 8-mer, flanks averaged, mean of 2 arrays, mostly near background
Construct (chain): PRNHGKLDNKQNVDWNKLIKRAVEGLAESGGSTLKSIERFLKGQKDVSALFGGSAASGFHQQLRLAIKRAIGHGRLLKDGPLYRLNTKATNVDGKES
`TACCATCA` has an E-score of -0.182.
With `AGCCCTGC` the E-score was 0.0206.
`CCCCTTTA` has an E-score of -0.0828.
For `AAAGTAGC`, the E-score was -0.0622.
For `ACACTGGT`, the E-score was -0.193.
For `CTAACAAC`, the E-score was 0.0794.
The E-score of `AGCTCAGA` is reported as -0.0906.
For `CGCCAGCA`, the E-score was 0.0984.
`AAGTCGGA` gave an E-score of 0.113.
The E-score of `GCCCCCAC` is reported as -0.0238.
The E-score of `ACCAGTCG` is reported as 0.0356.
With `CAACCATG` the E-score was -0.0647.
For `AAACTACA`, the E-score was 0.0752.
`GGTTAAGA` has an E-score of -0.0187.
With `AAGCTAGC` the E-score was 0.0219.
For `CTATCTTA`, the E-score was -0.069.
For `AGCTCCTA`, the E-score was -0.035.
For `GCACGCAC`, the E-score was -0.0348.

Set 3 — method: protein-binding microarray; molecule type: double-stranded DNA, one strand shown; medium: in vitro; concentration: 250 nM; notes: 60-bp whole probe; together with: salmon DNA 0.4 mg/ml; baseline: random background probes; reading: higher = stronger binding; constant ends, left off below: GCCTAGCAC … GTCTTGATTCGCTTGACGCTGCTG
Target: Interferon regulatory factor 7, full length, phosphomimetic (IRF7, Homo sapiens, UniProt Q92985, residues 1-503, S101K/S471D/S472D/S475D/S476D/S477D/S483D/S484D/S487D)
Construct (chain): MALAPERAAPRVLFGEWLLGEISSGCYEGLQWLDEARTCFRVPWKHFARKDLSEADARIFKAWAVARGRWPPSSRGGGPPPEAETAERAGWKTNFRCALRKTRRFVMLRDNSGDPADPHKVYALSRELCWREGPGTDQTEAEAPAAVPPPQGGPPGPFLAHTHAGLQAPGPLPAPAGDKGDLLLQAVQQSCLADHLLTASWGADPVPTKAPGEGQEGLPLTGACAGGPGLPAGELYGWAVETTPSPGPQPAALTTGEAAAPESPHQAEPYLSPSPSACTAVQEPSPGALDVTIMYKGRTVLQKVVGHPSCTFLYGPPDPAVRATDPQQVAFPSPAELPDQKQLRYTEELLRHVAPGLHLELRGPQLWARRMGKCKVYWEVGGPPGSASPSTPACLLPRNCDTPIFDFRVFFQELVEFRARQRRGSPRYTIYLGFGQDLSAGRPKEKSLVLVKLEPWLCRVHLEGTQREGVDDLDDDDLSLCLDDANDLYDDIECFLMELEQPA
With `TCAGGTCTCGGTTTCGGTTAGTGCTAG` the log fluorescence was 11.4 z-score.
`TTAGGTTTCCTTTCGCTTTAGTGCTAG` gave a log fluorescence of 7.48 z-score.
`GACGAACTGGGGACAGGAGACGTGCTA` has a log fluorescence of -0.242 z-score.
`TTAGGTTTCGATTTTCGGTTAGTGCTA` has a log fluorescence of 14.1 z-score.
The log fluorescence of `TTAGGTTTCGACTATCTGTTAGTGCTA` is reported as 5.22 z-score.
`TCAACTCTTTCTGTCAGACTGTGCTAG` gave a log fluorescence of 0.621 z-score.
`GTCGGTCTCCTTTTCCTGACGTGCTAG` gave a log fluorescence of 2.32 z-score.
The log fluorescence of `GTCGGACTGCTACTGCTGACGTGCTAG` is reported as -0.504 z-score.
`GACGCACTGCTACTGCTGACGTGCTAG` gave a log fluorescence of -0.353 z-score.
`GAAGAACTGGGGTATCGAGACGTGCTA` has a log fluorescence of -0.444 z-score.
`GACGGACTTCTACTGCTGACGTGCTAG` has a log fluorescence of -0.248 z-score.
With `GACGGTCTCGGTATCGGTACGTGCTAG` the log fluorescence was 1.92 z-score.
With `GAAGGTTTCGGGTTTCGGGACGTGCTA` the log fluorescence was 12 z-score.
`TCAGCTTCCTCTTTTTTACTGTGCTAG` gave a log fluorescence of 0.299 z-score.
For `AACGATATCAGTCTCGAGACGTGCTAG`, the log fluorescence was 0.723 z-score.
`GACGGACTGCCTTTCCTGACGTGCTAG` has a log fluorescence of -0.469 z-score.
`TTAGGTAACGGTTTCGGTTAGTGCTAG` gave a log fluorescence of 9.55 z-score.
`GACGGACTTCTTCTCCTGACGTGCTAG` has a log fluorescence of -0.118 z-score.
With `CCGGGTTTCACCATGTTGGCGTGCTAG` the log fluorescence was 1.05 z-score.

Set 4 — method: RNA Bind-n-Seq; molecule type: RNA; medium: in vitro; concentration: 365 nM; baseline: no-protein control; reading: higher = stronger binding
Target: RNA binding protein fox-1 homolog 2, RRM domain, GST-SBP tag (RBFOX2, Homo sapiens, UniProt O43251-10, residues 100-194)
Notes: natural RNA segment, single round, ends assumed
Constant ends, left off below: GGGAGUUCUACAGUCCGACGAUC … UGGAAUUCUCGGGUGCCAA
Construct (chain): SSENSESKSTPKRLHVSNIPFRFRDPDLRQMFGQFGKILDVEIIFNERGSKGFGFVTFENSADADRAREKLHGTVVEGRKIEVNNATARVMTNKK
`AGUUGGCAAAGCACUGGGUAUCUUGUGCGGCUGCCGUGGAAGGCGGCCCUGCUCGAUGCAGGGUCUGCAGUGGCCUGAGGGCAGCCAGGCACUGCAUGCCUGUCUCCUUA` — result for “RBNS enrichment (R)”: 0.633.
For `AGUCACUCAUGACUGGAGGAAACAGGCUUCCUCCACAAAAGUCUCUCUAUAAAAUAUAUAAAACACCAUUUCUUGUAACUUGCCCUUAACAUCCCAAAGCAUUCCACCAA`, “RBNS enrichment (R)” read 0.884.
`AUCCUGGAGAACAAGUUACCAUGCAAGGAGUUGACAUCAGUUGUUAAGUGAGGCCCAUUCUUGUUUUUACAUCGGUCCUUUGUGGUUUUUCUGGGCCAGCAGAGAUUCUG`: “RBNS enrichment (R)” 0.364.
For `ACAGUCCCAGGAGAGAAGUCAUUAAGGGGGAACAUUGCAAGCUAUCUUUUCGUGUUCUCAGUGUAUUAUGUACGUGUGUGCUGUUGCCGCUAUGAGGGCUCGGGGCUUGC`, “RBNS enrichment (R)” read 0.766.
`AGAGUGGCUUCAAAACAUGAGCCUUAUGGGAAGUAGCCUUAAAAAAAGAAUGGGUAUACGCAGUGACUUCCGAUGGAAAUCUCCAAAACAAUAUUCCUAAGUAGCAAUGG`: “RBNS enrichment (R)” 0.358.
For `GAACCGGACUUGUGAAUCCUAGGCUGUGUCUCUGCUCUCCUUUCUCAGCCACUGGUACUCUGAGGCCCUUGAGGCUCUUUGUAAAGCUCUUUUAUAUCUAUUGACAAAGG`, “RBNS enrichment (R)” read 0.828.
Under “RBNS enrichment (R)”, `GGAAAGUUGGGCGUAAAGAUGGUCAGAUGUUGCCAGGCGAAGAUGAGCCUCUUCAUGCUCUAGUCACUGCCAAUACGAUGGAGAAUGUCAAAAAGGCAGUAGAACAGGUC` is recorded as 1.18.
`CAGUGGGUAGUGUCUAAAGCGACACUUUACUCACAGCCUGGCUUGAGUCAACAGGAACACCAUAGCACCCACAAAUACUUCUACUUGAAUCAUAUUCUGUGCUUUUUCAA`: “RBNS enrichment (R)” 0.285.

For quick reference, copied from above (set 2):
`CCCCTTTA` has an E-score of -0.0828.
For `AAAGTAGC`, the E-score was -0.0622.
For `ACACTGGT`, the E-score was -0.193.
For `CTAACAAC`, the E-score was 0.0794.
